Experimental data pooled from the literature.
A part holds a random share of what one study measured. Substitutions count along the parent as printed.

Sample 1 — target: vanadate, free oxyanion; technique: microfluidic competitive inhibition; medium: in vitro, cell-free expressed; concentration: not given; direction: lower = stronger binding; measurement: oxyanion analog dissociation constant
Setting: derived from inhibition constants, unchanged parent 676 nM
Parent: PafA, mature enzyme, eGFP fusion (Elizabethkingia meningoseptica, UniProt Q9KJX5); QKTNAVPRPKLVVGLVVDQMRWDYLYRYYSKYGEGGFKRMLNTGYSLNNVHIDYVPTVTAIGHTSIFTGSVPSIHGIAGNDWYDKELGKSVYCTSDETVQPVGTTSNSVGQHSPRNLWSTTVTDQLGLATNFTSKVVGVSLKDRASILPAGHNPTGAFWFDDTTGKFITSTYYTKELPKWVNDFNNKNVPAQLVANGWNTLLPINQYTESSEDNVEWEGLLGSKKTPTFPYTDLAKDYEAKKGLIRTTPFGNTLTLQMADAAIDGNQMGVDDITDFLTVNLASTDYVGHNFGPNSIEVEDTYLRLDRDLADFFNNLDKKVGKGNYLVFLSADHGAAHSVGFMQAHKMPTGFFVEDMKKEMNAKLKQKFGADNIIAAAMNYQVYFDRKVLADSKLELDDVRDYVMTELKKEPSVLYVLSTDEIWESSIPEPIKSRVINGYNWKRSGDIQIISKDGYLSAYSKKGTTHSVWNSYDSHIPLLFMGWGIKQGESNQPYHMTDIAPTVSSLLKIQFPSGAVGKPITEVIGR
G517V: 1.11 µM
G514V: 1.27 µM
T497G: 478 nM
Y302G: 4.87 µM
F368V: 849 nM
L456G: 480 nM
D124V: 5.11 µM
T133G: 600 nM

Sample 2 — observed: binding; technique: phage display NGS; molecule type: peptide; concentration: concentration not given; setting: panning round 4; relative to: input library; measurement: enrichment fold change
Target: UDP-N-acetylglucosamine--peptide N-acetylglucosaminyltransferase 110 kDa subunit (OGT, Homo sapiens, UniProt O15294)
Chain of UniProt O15294 (whole entry, looked up): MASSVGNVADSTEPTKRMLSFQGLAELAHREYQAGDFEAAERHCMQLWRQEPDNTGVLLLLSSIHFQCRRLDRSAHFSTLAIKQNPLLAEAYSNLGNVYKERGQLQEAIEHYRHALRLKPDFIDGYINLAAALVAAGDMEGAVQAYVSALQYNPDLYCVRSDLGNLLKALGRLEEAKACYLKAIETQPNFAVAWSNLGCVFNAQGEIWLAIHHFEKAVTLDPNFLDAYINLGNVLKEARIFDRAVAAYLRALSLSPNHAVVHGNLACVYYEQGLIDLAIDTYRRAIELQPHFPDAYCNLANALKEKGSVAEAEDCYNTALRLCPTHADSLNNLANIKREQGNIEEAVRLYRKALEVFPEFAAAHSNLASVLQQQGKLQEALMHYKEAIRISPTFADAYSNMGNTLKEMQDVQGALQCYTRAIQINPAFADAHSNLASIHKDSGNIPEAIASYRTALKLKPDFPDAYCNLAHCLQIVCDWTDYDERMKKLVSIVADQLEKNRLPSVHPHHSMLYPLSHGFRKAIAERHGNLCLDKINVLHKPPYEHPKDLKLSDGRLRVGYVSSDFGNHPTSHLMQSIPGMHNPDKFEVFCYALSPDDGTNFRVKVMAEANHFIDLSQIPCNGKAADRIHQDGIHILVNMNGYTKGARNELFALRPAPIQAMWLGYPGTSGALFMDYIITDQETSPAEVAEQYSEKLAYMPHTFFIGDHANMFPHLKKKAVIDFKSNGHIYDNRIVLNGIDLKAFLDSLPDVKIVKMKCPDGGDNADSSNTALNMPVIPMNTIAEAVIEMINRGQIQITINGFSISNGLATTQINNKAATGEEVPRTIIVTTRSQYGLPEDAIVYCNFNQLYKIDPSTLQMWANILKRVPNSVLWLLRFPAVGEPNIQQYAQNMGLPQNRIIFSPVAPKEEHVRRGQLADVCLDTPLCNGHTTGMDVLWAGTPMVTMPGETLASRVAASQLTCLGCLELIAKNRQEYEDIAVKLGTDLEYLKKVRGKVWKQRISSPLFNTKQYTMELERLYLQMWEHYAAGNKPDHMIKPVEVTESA
ESIYKPRYQISIAYA: 1.52
TMTRDFTPKYQIMVK: 4.7
VRFPPQYQMVYKTTV: 1.51
MWMPQYQITYDPRVT: 1.9
KMESYQPAYQINYTH: 2

Sample 3 — target: CCNB3, cyclin fold, Cln2 fusion (human); technique: yeast growth competition, sequencing; medium: yeast; setting: strong parent motif; relative to: not given; direction: higher = stronger binding; measurement: normalised enrichment score
Parent: viral docking peptide; KGVKRKLFAEDSS; partner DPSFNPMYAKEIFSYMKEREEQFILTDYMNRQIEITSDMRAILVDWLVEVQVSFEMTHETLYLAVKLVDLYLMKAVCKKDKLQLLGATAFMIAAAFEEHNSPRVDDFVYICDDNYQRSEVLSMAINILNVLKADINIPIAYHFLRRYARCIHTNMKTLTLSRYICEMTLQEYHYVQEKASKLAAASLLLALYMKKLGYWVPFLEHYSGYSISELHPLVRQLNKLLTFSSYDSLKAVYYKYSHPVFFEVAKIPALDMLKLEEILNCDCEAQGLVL
S12E: 3.15
S12P: 3.4
A9G: 2.35
R5S: -0.0555
S12I: 3.12
G2P: 4.02
K6H: 0.454
S12T: 3.09

Further values, each from its own experiment
CC1=C(C#N)[C@@H](c2ccc3[nH]nc(C)c3c2)C(C#N)=C(c2ccc(Cl)cc2)N1
remaining binding (Serine/threonine-protein kinase PknB (pknB, Mycobacterium tuberculosis, UniProt P9WI81); cell-free assay, competition with immobilised ligand; 1 µM): 100%

Repeated from above (sample 3):
R5S: -0.0555
S12I: 3.12
G2P: 4.02
K6H: 0.454
